Results collected from several papers.
Each numbered part is a random draw from the data of one study; scales do not carry over between parts. Positions count from the first letter of the parent shown.

Set 1
Substance: PhoQ, residues 284 288 289 292 302 303 TYGVAM
Technique: Sort-seq
Refers to: YFP reporter
Matrix: E. coli
Setting: PhoQ-PhoP variant library
Added: 10 µM Mg2+
Relative to: high Mg2+ state
Reading: higher = stronger signaling
Endpoint: fold induction
PhoP, residues 12 14 15 18 19 LHHYF (Escherichia coli, UniProt P23836): 33.5
PhoP, residues 12 14 15 18 19 TPWTL (Escherichia coli, UniProt P23836): 13.1
PhoP, residues 12 14 15 18 19 NFFVT (Escherichia coli, UniProt P23836): 8.31

Set 2
Target: RNA binding protein fox-1 homolog 2, RRM domain, GST-SBP tag (RBFOX2, Homo sapiens, UniProt O43251-10, residues 100-194)
Technique: RNA Bind-n-Seq
Molecule type: RNA
Matrix: in vitro
Tested at: 365 nM
Setting: natural RNA segment, single round, ends assumed
Relative to: no-protein control
Reading: higher = stronger binding
Endpoint: RBNS enrichment (R)
All sequences stand within: GGGAGUUCUACAGUCCGACGAUC … UGGAAUUCUCGGGUGCCAA
GAGGGGGAGGGGCUCUUGCUUUAAGUCAGAAGUCUCAAAUGACAUGCUCAUCAAUUAAAGGAAAAAAAAAACCCCACCUCAACCUUCAUAACUGCCCAACAACUACCCCC: 0.423
CUCUGGCCUUCCCCAUAUUACACACCAGCACUUUAUAUAUUUUUGGCUCACAGGAGGAGUCUAGGGUAGGGACUGGGGUUUCUGCUUUGGGUAGUAGCCUUGUUAUUUGA: 1.35
UUUAAGCCCAACUACUUGUCAUAUAUGUCUGAAUGUCAAAAGCUGUCAGCAGCACAACACAAUCUAUAUGACUUUCUCUUUUGCACUUCACUUGUGUAUUUUACAGUGGU: 0.454
UUCACGAGUUUGCCUAGUGCUCUGGUUUACACUAUAUGACAACUAUACUUCAGCUGUUCUUUGCCUGCACUUAUUAUAUACAUUGUUUCAUGCACAGUUAUUACAAAUCA: 0.948
CCUUGACCCCUGGGCACCUCCAUCCCCUCCCACCUGUCCCCAGAUCAGUCUCUGGGAUGGAGGCCAGAGAGCUGGUCAGGCUCCCCCAUCUGCCCAGCACGGCCUGCACU: 1.44
GAACUUAAAUAGAAGGCAACAGGAAAUUUAUAUAGGAACUAUUUUCAUUCCACUUGUGUAAGUUAAGUCUUGACUCUUUCAAAUGCAAAAAACCUAUUUUAUGCUUUGUU: 0.554
GAGGCUGCUCCGUCCUUGCCAGCUGCUCCCUAGUCCUGAGUGGUCCUUGGUGAGGAGCAGCAAGAUGCAGCGAGUUGAGUGAGACUUAGGGCUUUUGAUUUUUUUUUUUU: 0.415
UCCGUAUAUUCUCCAGCUAAAUGGUCGUCUGGUAGCCUUUGCAUUUAACAAACUAGCAUGAGGCUUUUUAUAUCUAAAUGCUACGUGAUAGACAAUUUCAGCUAGCCACA: 5.51
UUUAGUUCAUGAUGGCAGCUCUCUGCCUCUUCAGAAAGUAUAUAUCAUAGUGGUAAAUAAUGUAGAUUAUAUAUAUACAUAUAUAUAUAUAUAUAUGCUAUAUAUGGACA: 1.54
AUACACACACGCACAUACUCCUGCACAUGUUCCCAUGCAUGUGUGUGCACUCGGACCGAGCAUCUCCCACGCACCUCUACCCCACCCCAAGCACCUCUCUCCCCCCAUGC: 2.83
CCUGAAUUUACUGUUAUCUUAUUGUAGUACUUGCAUGACAUGGAUUCCUGAUAUCUGAUGAGAGGUUCAUUCUUGUGUAUUCAGUUAAUGACACCAAAAGGCUCAGCCCA: 2.25
CUCCUCCCAAAUAUGUGCUCAGUUCCAUUAGAUUCUAUCAGAAGCACAAACAUCAGCAAAACUUUGCCUCCCAAGAUAUAAAACCUAGAAACAGACCUGUGUUCCACCCU: 0.863

Set 3
Target: ABI1, truncated, D143A, DHFR fusion (Arabidopsis thaliana)
Technique: DHFR PCA, deep sequencing
Matrix: yeast
Setting: methotrexate growth selection, single substitutions
Added: (+)-ABA 0.032 µM
Relative to: wild-type fitted maximum
Reading: higher = stronger binding
Endpoint: relative binding score
Starting sequence: PYL1, truncated, DHFR fusion (Arabidopsis thaliana); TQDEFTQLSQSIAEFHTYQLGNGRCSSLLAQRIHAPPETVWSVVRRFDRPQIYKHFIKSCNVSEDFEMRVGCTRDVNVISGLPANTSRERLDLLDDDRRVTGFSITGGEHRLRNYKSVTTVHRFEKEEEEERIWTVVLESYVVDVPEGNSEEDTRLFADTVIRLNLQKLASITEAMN
R45Q: 0.777%
D95I: -3.85%
I12R: 2.38%
E67G: 4.32%
T6R: 51.4%
E127M: 40%
D92H: 0.401%
I105L: 0.133%
L82T: 8.62%
L29R: 1.79%
Y115T: 1.04%
S80L: 38%
G21P: 1.06%
V78W: 80%
Q167M: 19.3%
K116A: 2.19%
E109Q: 9.07%
M68L: 61.9%
N149G: 52.9%
V70I: 17.2%

Set 4
Target: Fragile X messenger ribonucleoprotein 1, C-terminal low-complexity region (Fmr1, Mus musculus, UniProt P35922)
Technique: RNA Bind-n-Seq
Molecule type: RNA
Matrix: in vitro
Tested at: 200 nM
Setting: whole 134-nt RNA, ends assumed
Added: 150 mM LiCl
Relative to: input library
Reading: higher = stronger binding
Endpoint: log2 enrichment
All molecules: 7-deaza-guanosine replaces G
All sequences stand within: GGGAGUUCUACAGUCCGACGAUC … UGGAAUUCUCGGGUGUCAAGG
UCAAGUCCUGUGCUACACAUCGUAUGUACCGAAUCGGGGAAGGAAGGGAAGGGGAAAGUAUUAUGUUACGCCGUUCGGAUCUGCACUUCC: -0.591
CCUGUGCUACACAUCGUAUGUACCGAAUCGGGGUUUGGGGUUUUUGGGGUUUUUUUGGGGAAAGUAUUAUGUUACGCCGUUCGGAUCUGC: -0.386
GUAGAAAUUCAUGUAUAAAUGGAACCAUAUAGUACAUACAUAUCAUACUCUUAGGUCUGGCAAAUAUUUGAGGUUCAUCCAUAUUUUAUA: -2.08
UCCUGUGCUACACAUCGUAUGUACCGAAUCGGGGUGGGGAAAAAGGGGAAAAAAAGGGGAAAGUAUUAUGUUACGCCGUUCGGAUCUGCA: -1.44
AAGUCCUGUGCUACACAUCGUAUGUACCGAAUCGGGGAAAGGGGUUUGGGGUGGGGAAAGUAUUAUGUUACGCCGUUCGGAUCUGCACUU: -0.803
ACCAUAAAGGUGGGCAUCUUUGGGAAGUGGGGCAAGGGGGGGAUAGGGAGGGGGGUAACACUUUGGGAACAGGUGGUCCCAGGUCGUUUC: 1.21
CCUGUGCUACACAUCGUAUGUACCGAAUCGGGGUUUUUGGGGAAAAAGGGGUUUUUGGGGAAAGUAUUAUGUUACGCCGUUCGGAUCUGC: -1.74
UGGCCCUGGUGGCAUGCGGGGAGGAAGACGUGGCCUCAUGGAUCGUGGUGGUCCCGGUGGAAUGUUCAGAGGUGGCCGUGGUGGAGACAG: -0.273
UAACUUUAGAGGAGGAUCUGAUGGAUAUGGCAGUGGACGUGGAUUUGGGGAUGGCUAUCAUGGGUAUGGAGGAGGACCUGGAGGUGGCAA: -0.0764
ACCAUGCAGGUGGGCAUCUUUGGGAAGUGGGGCAAGGGGGGGAUAGGGGGGGGGGUAACACUUUGGGAACAGGUGGUCCCAGGUCGUUUC: 1.46
AUUUGUACACAGACAGGGAAACUGGCAAGCUGAAGGGAGAGGCAACGGUCUCUUUUGAUGACCCACCUUCAGCUAAAGCAGCUAUUGACU: -0.743

Some of these lines once more (set 3):
L82T: 8.62%
L29R: 1.79%
Y115T: 1.04%
S80L: 38%
G21P: 1.06%
V78W: 80%
Q167M: 19.3%
